Assay results of several laboratories.
“And” joins repeats or separate records; there may be more than shown. ± marks the error that the study gave. In brackets after ≈: the same amount, converted by molar mass.

SMILES | tested on | test | test system | conditions | how to read | endpoint | value
N#Cc1ccc(S(=O)(=O)NCc2cn(CB(O)O)nn2)cc1 | Klebsiella pneumoniae |  | KPC-producing | 10 µg/mL, with: cefepime |  | MIC of cefepime | 4 µg/mL
C=CC(=O)Nc1cc(-n2c(=O)ccc3cnc4ccc(-c5cn[nH]c5)cc4c32)ccc1C | DU-145 | cell growth |  | 72 h |  | GI50 | > 10000 nM
COc1cc(C(C)C#Cc2c(C)nc(N)nc2N)cc(OC)c1OC (stereo not shown) | Candida glabrata | Alamar Blue |  |  |  | MIC | 21 µg/mL
CO[C@H]1[C@H](O[C@H]([C@H]2O[C@@H](n3ccc(=O)[nH]c3=O)[C@H](O)[C@@H]2O)[C@H](NCCCNC(=O)[C@@H](NC(=O)[C@@H](NC(=O)N[C@H](C(=O)O)C(C)C)[C@@H]2CCNC(=N)N2)[C@@H](OC(=O)CCCCCCCCCCCCN(O)C(=N)N)C(C)C)C(N)=O)O[C@H](CN)[C@H]1O | Mycolicibacterium smegmatis | alamar blue | ATCC 607 | nutrient-deficient medium |  | MIC90 | 0.04 ± 0.005 µg/mL (≈ 0.0329 µM)
O=C(NC1CCN(c2ncnc3[nH]cnc23)CC1)c1cccc(S(=O)(=O)Nc2ccc(Cl)cc2)c1 | A549-ACE2 |  |  | 0.09145 µM |  | viability | 108%
O=C(O)c1cccc(C#Cc2ccccc2)c1-c1ccc2cc[nH]c2c1 | Epstein-Barr virus |  | EBV-positive lymphoblastoid cells, mouse xenograft | 30 mg/kg twice daily |  | tumour size | decreased
CC(=O)c1cccc(C(C)(C)NC(=O)Nc2ccc(Cl)c(-c3nc(C(F)(F)F)cs3)c2)c1 | Staphylococcus aureus |  | Smith, RPMI medium | with: no guanosine |  | MIC | > 30 µM
NC[C@@H](NC[C@@H]1CCCN1C[C@@H](CO)NC[C@@H](NCCC1CC2CCC1C2)c1ccccc1)c1ccccc1 (stereo partly shown) | Acinetobacter baumannii | bacterial growth |  | 24 µM, fold shift of IC90, with: amikacin |  | potentiation of amikacin | 4 fold
CN1CC[C@H](c2c(O)cc(O)c3c(=O)cc(-c4ccc(Br)cc4)oc23)[C@H](O)C1 | HIV-1 | viral replication | HeLa-CD4-LTR/β-gal, LAI |  |  | EC50 | 44.9 nM
CC(CCN[C@H](CN[C@H](CO)CN1CCC[C@H]1CN[C@H](CN)c1ccccc1)c1ccccc1)c1ccccc1 (stereo partly shown) | Klebsiella pneumoniae | bacterial growth |  | compound alone |  | IC50 | > 24000 nM
COC(C)(C)Cn1cc(-c2ccc3cc(OC4CC4)ccc3c2)c2c(N)ncnc21 | Cryptosporidium parvum | parasite growth | HCT-8 |  |  | EC50 | 1820 nM and < 2000 nM
C[C@H](CS)C(=O)N[C@@H](Cc1c[nH]c2ccccc12)C(=O)O | Enterobacter aerogenes |  | IMP-1 producing | 10 µM, with: meropenem |  | MIC of meropenem | 32 µg/mL
CN1CC[C@H](c2c(O)cc(O)c3c(=O)cc(-c4ccccc4F)oc23)[C@H](O)C1 | HIV-1 | viral replication | HeLa-CD4-LTR/β-gal, LAI |  |  | EC50 | 7.5 nM and < 10 nM
Cc1ccc(S(=O)(=O)Nc2cccc(C(=O)NC3CCN(c4ncnc5[nH]cnc45)CC3)c2)cc1Cl | A549-ACE2 |  |  | 0.09145 µM |  | viability | 105%
C/C(=C\C=C\[C@@H](C)[C@H]1CC[C@@]2(C)[C@@H]3CC[C@H]4C(C)(C)[C@@H](O[C@@H]5O[C@H](CO)[C@@H](O[C@@H]6O[C@H](CO)[C@@H](O)[C@H](O)[C@H]6O)[C@H](O)[C@H]5O[C@@H]5O[C@H](CO)[C@@H](O)[C@H](O)[C@H]5O[C@@H]5O[C@@H](C)[C@H](O)[C@@H](O)[C@H]5O)CC[C@@]45C[C@@]35CC[C@]12C)C(=O)N[C@@H]1C(=O)O[C@H](C)[C@@H]1C (single isomer, unassigned) | Trypanosoma brucei brucei | Alamar Blue | trypomastigote |  |  | IC90 | 3560 nM
CC(C)CN(C[C@@H](O)[C@H](Cc1ccccc1)NC(=O)O[C@H]1CO[C@H]2OCC[C@H]21)S(=O)(=O)c1ccc(NC(=O)CCl)cc1 | HIV-1 | viral replication | MT-2 cells, LAI |  |  | IC50 | > 1000 nM

SMILES | tested on | test | test system | conditions | how to read | endpoint | value
NCc1ccc(-c2ncc(OCC3CCNCC3)nc2-c2ccc(-c3ccoc3)cc2)cc1 | Zika virus |  | U87, FLR | 2.5 µM, 48 h |  | infectious virus reduction | 99%
CN1CC[C@]23c4c5ccc(O)c4O[C@H]2c2ncc(-c4ccc(Cl)cc4)cc2C[C@@]3(OCCCc2ccccc2)[C@H]1C5 |  |  | CD-1 mouse, chemotherapy-induced neuropathy | sc, 10 mg/kg, day 1 | baseline: morphine 10 mg/kg | AUC increase | 152%
CN(C)c1cc(CN2CCOCC2)nc2nc(NCc3ccc(C(C)(C)C)cc3)nn12 | Candida parapsilosis |  |  | concentration not given, without pantothenic acid |  | growth inhibition | ≤ 50%
C=C(C)c1cccc(C(C)(C)NC(=O)Nc2ccc(Cl)c(O)c2)c1 | Staphylococcus aureus |  | Smith, RPMI medium | with: 1 mM guanosine |  | MIC | > 50 µM
CN1CC[C@H](c2c(O)cc(O)c3c(=O)cc(-c4ccc(Cl)cc4)oc23)[C@H](O)C1 | HIV-1 | viral replication | HeLa-CD4-LTR/β-gal, LAI |  |  | EC50 | 16.7 nM
COc1cc(F)c2c(=O)c3ccc(Oc4ccc(OC(F)(F)F)cc4)cc3[nH]c2c1 | Toxoplasma gondii | parasite growth, beta-galactosidase reporter | HFF, RH | 3 days |  | EC50 | 0.17 nM
COc1ccc(S(=O)(=O)N(CC(C)C)C[C@@H](O)[C@H](Cc2ccccc2)NC(=O)O[C@H]2CO[C@H]3OC[C@@H](OC)[C@H]32)cc1 | HIV-1 LAI | viral cytopathic effect, MTT | MT2 |  |  | IC50 | 55 nM
CO[C@H]1[C@H](O[C@H]([C@H]2O[C@@H](n3ccc(=O)[nH]c3=O)[C@H](O)[C@@H]2O)[C@H](NCCCNC(=O)[C@@H](NC(=O)[C@@H](NC(=O)N[C@H](C(=O)O)C(C)C)[C@@H]2CCNC(=N)N2)[C@@H](OC(=O)CCCCCCCCCCCCNC(=N)N)C(C)C)C(N)=O)O[C@H](CN)[C@H]1O | Cryptococcus neoformans | alamar blue |  |  |  | MIC50 | > 35 µg/mL
C/C(=C\C=C\[C@@H](C)[C@H]1CC[C@@]2(C)[C@@H]3CC[C@H]4C(C)(C)[C@@H](O[C@@H]5O[C@H](CO)[C@@H](O)[C@H](O)[C@H]5O[C@@H]5O[C@H](CO)[C@@H](O)[C@H](O)[C@H]5O[C@@H]5O[C@@H](C)[C@H](O)[C@@H](O)[C@H]5O)CC[C@@]45C[C@@]35CC[C@]12C)C(=O)N[C@@H]1C(=O)O[C@H](C)[C@@H]1C | Trypanosoma brucei brucei | Alamar Blue | trypomastigote |  |  | IC90 | 10600 nM
CC(C)(NC(=O)Nc1ccc(Cl)cc1)c1cccc(C(=N)NO)c1 | Staphylococcus aureus |  | Smith, RPMI medium | with: no guanosine |  | MIC | 4 ± 2 µM
CN1CC[C@H](c2c(O)cc(O)c3c(=O)cc(-c4ccc(C(C)(C)C)cc4)oc23)[C@H](O)C1 | HIV-1 | viral replication | HeLa-CD4-LTR/β-gal, LAI |  |  | EC50 | 152 nM
CC(C)(NC(=O)Nc1ccc(Cl)c(-c2nc(C(F)(F)F)cs2)c1)c1cccc(C(N)=NO)c1 | Staphylococcus aureus |  | Smith, RPMI medium | with: 1 mM guanosine |  | MIC | > 40 µM
CN1CC[C@H](c2c(O)cc(O)c3c(=O)cc(-c4ccc(F)cc4)oc23)[C@H](O)C1 | HIV-1 | viral replication | HeLa-CD4-LTR/β-gal, LAI |  |  | EC50 | 11.7 nM
C=C(C)c1cccc(C(C)(C)NC(=O)Nc2ccc(Cl)c(N)c2)c1 | Staphylococcus aureus |  | Smith, RPMI medium | with: 1 mM guanosine |  | MIC | > 32 µM
NCCNCCSc1ccccc1 |  |  | mouse blood | 100 µg/mL, 30 min, 37 °C |  | blood concentration | 54.9 ± 0.88 µg/mL

A few entries again:
SMILES | tested on | test | test system | conditions | how to read | endpoint | value
O=C(NC1CCN(c2ncnc3[nH]cnc23)CC1)c1cccc(S(=O)(=O)Nc2ccc(Cl)cc2)c1 | A549-ACE2 |  |  | 0.09145 µM |  | viability | 108%
CN1CC[C@H](c2c(O)cc(O)c3c(=O)cc(-c4ccc(F)cc4)oc23)[C@H](O)C1 | HIV-1 | viral replication | HeLa-CD4-LTR/β-gal, LAI |  |  | EC50 | 11.7 nM
